Assay results gathered from unrelated publications.
Protocols differ between the studies behind these lines. ± gives the spread as reported.
AKR1C2: Aldo-keto reductase family 1 member C2 (AKR1C2, Homo sapiens, UniProt P52895)
UniProt P52895, sequence (whole entry, looked up): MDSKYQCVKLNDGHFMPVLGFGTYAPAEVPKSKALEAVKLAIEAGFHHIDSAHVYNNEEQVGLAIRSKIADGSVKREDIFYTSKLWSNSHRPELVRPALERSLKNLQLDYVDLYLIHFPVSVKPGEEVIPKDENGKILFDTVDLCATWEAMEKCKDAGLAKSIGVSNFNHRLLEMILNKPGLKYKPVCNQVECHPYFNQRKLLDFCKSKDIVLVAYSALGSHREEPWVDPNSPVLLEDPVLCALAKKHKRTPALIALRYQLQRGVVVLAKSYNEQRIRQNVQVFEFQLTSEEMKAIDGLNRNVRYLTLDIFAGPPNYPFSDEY
Sigmar1: Sigma non-opioid intracellular receptor 1 (Sigmar1, Rattus norvegicus, UniProt Q9R0C9)
UniProt Q9R0C9, sequence (whole entry, looked up): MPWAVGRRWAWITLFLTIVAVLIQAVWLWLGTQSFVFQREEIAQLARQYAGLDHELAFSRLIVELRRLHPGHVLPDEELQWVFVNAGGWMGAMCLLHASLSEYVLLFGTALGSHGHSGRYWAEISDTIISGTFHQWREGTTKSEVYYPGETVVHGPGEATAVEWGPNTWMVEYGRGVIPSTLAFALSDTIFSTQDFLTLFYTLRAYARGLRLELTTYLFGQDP
CDK4 with cyclin D3: Cyclin-dependent kinase 4, with cyclin D3 (CDK4, Homo sapiens, UniProt P11802)
UniProt P11802, sequence (whole entry, looked up): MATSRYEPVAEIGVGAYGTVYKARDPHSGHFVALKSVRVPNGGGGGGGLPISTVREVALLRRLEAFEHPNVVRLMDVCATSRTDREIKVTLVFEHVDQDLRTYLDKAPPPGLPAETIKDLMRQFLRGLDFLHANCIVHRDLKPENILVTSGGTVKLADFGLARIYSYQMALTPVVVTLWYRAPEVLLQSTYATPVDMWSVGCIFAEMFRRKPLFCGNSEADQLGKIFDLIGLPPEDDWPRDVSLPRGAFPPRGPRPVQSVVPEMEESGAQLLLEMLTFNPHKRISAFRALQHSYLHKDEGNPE
AMY2: Pancreatic alpha-amylase (AMY2, Sus scrofa, UniProt P00690)
UniProt P00690, sequence (whole entry, looked up): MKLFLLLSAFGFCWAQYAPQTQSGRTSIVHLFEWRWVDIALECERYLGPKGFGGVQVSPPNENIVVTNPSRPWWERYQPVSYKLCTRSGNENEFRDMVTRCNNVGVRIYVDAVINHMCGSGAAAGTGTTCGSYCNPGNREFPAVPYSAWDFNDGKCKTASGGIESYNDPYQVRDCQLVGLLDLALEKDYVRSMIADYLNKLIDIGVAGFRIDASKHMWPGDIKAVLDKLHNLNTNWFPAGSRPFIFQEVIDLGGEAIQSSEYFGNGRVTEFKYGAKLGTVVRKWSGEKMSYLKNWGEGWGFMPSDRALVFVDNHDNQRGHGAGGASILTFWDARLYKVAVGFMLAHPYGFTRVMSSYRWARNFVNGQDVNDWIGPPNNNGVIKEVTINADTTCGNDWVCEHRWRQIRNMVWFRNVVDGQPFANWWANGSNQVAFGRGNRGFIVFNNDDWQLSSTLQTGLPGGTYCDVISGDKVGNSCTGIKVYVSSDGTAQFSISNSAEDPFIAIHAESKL
PNLIP: Pancreatic triacylglycerol lipase (PNLIP, Sus scrofa, UniProt P00591)
UniProt P00591, sequence (whole entry, looked up): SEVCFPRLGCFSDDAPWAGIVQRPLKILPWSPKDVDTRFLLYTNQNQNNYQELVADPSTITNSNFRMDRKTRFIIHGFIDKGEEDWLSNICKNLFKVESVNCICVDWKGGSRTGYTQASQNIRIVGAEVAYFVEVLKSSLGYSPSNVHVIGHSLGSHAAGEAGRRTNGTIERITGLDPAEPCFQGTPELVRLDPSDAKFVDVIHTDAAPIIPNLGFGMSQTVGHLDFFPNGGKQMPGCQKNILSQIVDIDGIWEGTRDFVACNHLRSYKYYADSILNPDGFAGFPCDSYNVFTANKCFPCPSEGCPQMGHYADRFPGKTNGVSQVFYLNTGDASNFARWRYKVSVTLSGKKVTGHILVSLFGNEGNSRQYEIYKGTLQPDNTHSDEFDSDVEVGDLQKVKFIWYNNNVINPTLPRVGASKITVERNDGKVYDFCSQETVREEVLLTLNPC
hdac10: Polyamine deacetylase HDAC10 (hdac10, Danio rerio, UniProt F1QCV2)
UniProt F1QCV2, sequence (whole entry, looked up): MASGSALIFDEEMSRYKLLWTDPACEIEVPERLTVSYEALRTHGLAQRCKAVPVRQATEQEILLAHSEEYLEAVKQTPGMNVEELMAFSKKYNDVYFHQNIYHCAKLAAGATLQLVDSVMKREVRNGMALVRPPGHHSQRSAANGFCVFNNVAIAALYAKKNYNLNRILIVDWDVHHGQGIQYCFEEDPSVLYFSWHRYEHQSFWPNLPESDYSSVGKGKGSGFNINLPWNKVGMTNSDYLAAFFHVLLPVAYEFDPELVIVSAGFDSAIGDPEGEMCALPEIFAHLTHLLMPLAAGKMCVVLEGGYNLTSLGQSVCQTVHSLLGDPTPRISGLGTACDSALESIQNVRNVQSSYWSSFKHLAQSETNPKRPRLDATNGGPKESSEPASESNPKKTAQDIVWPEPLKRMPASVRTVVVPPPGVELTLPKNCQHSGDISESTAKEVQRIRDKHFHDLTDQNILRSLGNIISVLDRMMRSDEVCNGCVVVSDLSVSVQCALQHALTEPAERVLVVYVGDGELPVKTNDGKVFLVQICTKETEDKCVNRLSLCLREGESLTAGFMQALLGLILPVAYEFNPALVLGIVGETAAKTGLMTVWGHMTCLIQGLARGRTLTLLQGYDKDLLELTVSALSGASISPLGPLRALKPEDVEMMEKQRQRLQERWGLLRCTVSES
Ectonucleoside triphosphate diphosphohydrolase 8: Ectonucleoside triphosphate diphosphohydrolase 8 (Homo sapiens, UniProt Q5MY95)
UniProt Q5MY95, sequence (whole entry, looked up): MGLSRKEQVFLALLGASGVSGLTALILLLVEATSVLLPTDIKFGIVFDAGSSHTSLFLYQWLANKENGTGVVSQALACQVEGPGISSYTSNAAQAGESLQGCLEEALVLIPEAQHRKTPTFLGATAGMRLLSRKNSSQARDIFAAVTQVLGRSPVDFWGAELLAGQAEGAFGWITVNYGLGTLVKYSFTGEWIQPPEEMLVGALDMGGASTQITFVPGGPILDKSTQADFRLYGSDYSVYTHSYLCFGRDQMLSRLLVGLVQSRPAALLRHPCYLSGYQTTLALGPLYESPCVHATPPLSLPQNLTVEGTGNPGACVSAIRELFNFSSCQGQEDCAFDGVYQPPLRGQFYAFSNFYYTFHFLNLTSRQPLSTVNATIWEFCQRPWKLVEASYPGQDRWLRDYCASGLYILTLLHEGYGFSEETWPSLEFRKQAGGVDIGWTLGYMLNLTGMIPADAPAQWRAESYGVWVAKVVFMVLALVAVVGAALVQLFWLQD
Tripartite terminase subunit 3 C-terminal nuclease domain: Tripartite terminase subunit 3, C-terminal nuclease domain (Human betaherpesvirus 5, UniProt P16732)
UniProt P16732, sequence (whole entry, looked up): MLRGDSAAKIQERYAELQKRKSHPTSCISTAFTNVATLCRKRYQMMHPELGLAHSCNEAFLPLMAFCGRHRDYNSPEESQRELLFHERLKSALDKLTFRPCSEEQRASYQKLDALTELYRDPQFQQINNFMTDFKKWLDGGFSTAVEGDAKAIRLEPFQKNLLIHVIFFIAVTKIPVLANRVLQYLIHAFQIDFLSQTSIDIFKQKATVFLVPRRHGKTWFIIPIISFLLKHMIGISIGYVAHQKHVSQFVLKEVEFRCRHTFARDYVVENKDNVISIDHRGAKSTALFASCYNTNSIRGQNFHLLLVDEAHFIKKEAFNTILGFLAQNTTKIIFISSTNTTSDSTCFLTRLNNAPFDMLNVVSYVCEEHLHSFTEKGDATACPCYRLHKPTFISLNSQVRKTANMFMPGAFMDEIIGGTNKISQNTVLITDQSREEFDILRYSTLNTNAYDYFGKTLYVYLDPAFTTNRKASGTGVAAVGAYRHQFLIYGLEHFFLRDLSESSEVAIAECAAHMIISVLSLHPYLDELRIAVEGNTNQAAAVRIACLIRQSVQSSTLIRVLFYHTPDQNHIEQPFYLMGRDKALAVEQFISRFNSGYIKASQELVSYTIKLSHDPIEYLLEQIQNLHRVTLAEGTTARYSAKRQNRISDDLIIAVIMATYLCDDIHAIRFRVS
ELANE: Neutrophil elastase (ELANE, Homo sapiens, UniProt P08246)
UniProt P08246, sequence (whole entry, looked up): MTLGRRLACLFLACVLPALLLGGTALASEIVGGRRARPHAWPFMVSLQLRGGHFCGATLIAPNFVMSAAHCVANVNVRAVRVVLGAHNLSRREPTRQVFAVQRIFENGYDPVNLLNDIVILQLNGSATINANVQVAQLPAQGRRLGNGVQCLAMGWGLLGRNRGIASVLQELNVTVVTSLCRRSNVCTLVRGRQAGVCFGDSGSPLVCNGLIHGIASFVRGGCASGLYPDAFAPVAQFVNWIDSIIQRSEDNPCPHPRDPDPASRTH
PDK1: [Pyruvate dehydrogenase (acetyl-transferring)] kinase isozyme 1, mitochondrial (PDK1, Homo sapiens, UniProt Q15118)
UniProt Q15118, sequence (whole entry, looked up): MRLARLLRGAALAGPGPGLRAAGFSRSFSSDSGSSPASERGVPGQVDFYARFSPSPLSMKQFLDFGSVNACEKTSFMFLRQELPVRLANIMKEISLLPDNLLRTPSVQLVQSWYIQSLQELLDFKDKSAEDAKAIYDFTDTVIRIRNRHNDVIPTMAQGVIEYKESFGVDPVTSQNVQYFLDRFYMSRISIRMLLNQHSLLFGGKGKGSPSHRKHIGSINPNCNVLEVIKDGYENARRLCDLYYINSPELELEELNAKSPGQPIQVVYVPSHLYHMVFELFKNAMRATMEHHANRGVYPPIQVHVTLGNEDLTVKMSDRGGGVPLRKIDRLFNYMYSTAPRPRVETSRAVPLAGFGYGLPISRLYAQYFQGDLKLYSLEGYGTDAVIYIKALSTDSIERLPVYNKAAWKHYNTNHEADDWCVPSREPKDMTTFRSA
UniProt Q13882, sequence (whole entry, looked up): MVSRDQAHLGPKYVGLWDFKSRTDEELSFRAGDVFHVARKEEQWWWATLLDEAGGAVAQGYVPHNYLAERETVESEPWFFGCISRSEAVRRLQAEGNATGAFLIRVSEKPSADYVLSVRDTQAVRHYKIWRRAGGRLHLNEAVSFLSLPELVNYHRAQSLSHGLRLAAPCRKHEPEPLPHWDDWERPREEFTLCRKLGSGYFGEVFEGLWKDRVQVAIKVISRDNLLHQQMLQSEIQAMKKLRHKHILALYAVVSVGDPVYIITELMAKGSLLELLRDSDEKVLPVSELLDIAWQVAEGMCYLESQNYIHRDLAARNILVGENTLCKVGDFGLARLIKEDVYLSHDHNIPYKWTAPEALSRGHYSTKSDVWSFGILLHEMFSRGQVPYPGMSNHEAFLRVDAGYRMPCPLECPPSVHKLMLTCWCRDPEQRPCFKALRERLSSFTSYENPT

`C[C@@]12CC[C@@H]3c4ccc(O)c(I)c4CC[C@H]3[C@@H]1CCC2=O` has an inhibition of 75% (AKR1C2; enzyme activity, inhibitor, absorbance; 100 µM).
The inhibition of `CCc1nc2ccccn2c1C(=O)NCc1ccc2oc(-c3ccc(OC(F)(F)F)cc3)nc2c1` is reported as 50% (Cytochrome bc1-aa3 supercomplex (Mycolicibacterium smegmatis, UniProt A0R052+I7GD61); oxygen consumption, Clark electrode; 10 µM, added: NADH).
`C/C(=N\OCCN1CCCCC1)c1ccccc1C(F)(F)F` has an inhibition of 73.6% (Sigmar1; radioligand binding; 1 µM).
For `Cc1[nH]c2ccccc2c1CCNC(=O)c1cccs1`, inhibition read “inhibited” (ACTR3/Actin-related protein 2 (Homo sapiens, UniProt P61158+P61160); actin polymerization, pyrenyl-actin; 20 µM, added: 300 nM ActA).
`C/C(=N\OCCCCN1CCOCC1)c1ccc(C(F)(F)F)cc1` gave an inhibition of 57.8% (Sigmar1; radioligand binding; 1 µM).
`Nc1ncnc2c1ncn2[C@@H]1O[C@H](CNc2c(NC(=O)CCC(=O)c3ccccc3C(=O)O)c(=O)c2=O)[C@@H](O)[C@H]1O`: inhibition “inactive” (2-succinylbenzoate--CoA ligase (menE, Escherichia coli, UniProt P37353); enzyme activity, inhibitor, MenE–MenB coupled; concentration not given).
The inhibition of `CC(C)Cn1cc(-c2nc(Nc3ccc(OCCCCCCC(=O)NO)cc3)ncc2F)nn1` is reported as 5.13% (CDK4 with cyclin D3; enzyme activity, inhibitor, TR-FRET; 50 nM).
`N#Cc1cccc(Nc2ncnc3[nH]c4cc(Br)ccc4c23)c1` gave an inhibition of 44.2% (PTK6 (Homo sapiens, UniProt Q13882); enzyme activity, inhibitor, ADP detection; 2 µM).
The inhibition of `COC(=O)C1=CNC=C(C(=O)OC)C1c1ccc(F)c(C(F)(F)F)c1` is reported as 40 to 60% (NR3C1 (Homo sapiens, UniProt P04150); cell-free assay; 3 µM).
The inhibition of `CC(=O)OCCc1ccc(O)c(O)c1` is reported as < 10% (AMY2; enzyme activity, inhibitor; 500 µM).
With `CCC(=O)N(C)c1ccc(Cl)c(Cl)c1` the inhibition was 25.8% (MTNR1A (Homo sapiens, UniProt P48039); ligand displacement, radioligand; 10 µM).
The inhibition of `O=C(O[C@H]1Cc2c(O)cc(O)cc2O[C@@H]1c1cc(O)c(O)c(O)c1)c1cc(O)c(O)c(O)c1` is reported as 75.8% (PNLIP; enzyme activity, inhibitor; 10 µM).
For `O=C(O[C@H](CO)C(F)(F)F)N1C[C@@H]2[C@H](C1)[C@H]2c1ccn(-c2ccc(F)nc2)n1`, inhibition read “no inhibition” (Abhd12 (Mus musculus, UniProt Q99LR1); ABPP; mouse brain lysate; 0.2 µmol/L).
`COc1cc(C(=O)NC2CCC(N3CCN(CC4CCC5(CCCC5)C4)CC3)CC2)c(F)cc1Nc1ncc2c(n1)N(C1CCCC1(F)F)CC(F)(F)C(=O)N2C` (stereo not drawn) gave an inhibition of 0.94% (MUSK (Homo sapiens, UniProt O15146); cell-free assay, TR-FRET; 10 µM).
`CC1=C(/C=C/C(C)=C/C=C/C(C)=C/C=O)C(C)(C)CCC1` has an inhibition of 67.6% (CNGA1 (Bos taurus, UniProt Q00194); cGMP-activated current, inhibitor, inside-out patch clamp; 30 nM, added: low cGMP (~7.4% activation)).
`O=[N+]([O-])c1cccc(-n2c(-c3ccc(Cl)cc3)cs/c2=N/N=C/c2ccc(N3CCOCC3)cc2)c1` has an inhibition of 69.8% (CA2 (Bos taurus, UniProt P00921); enzyme activity, inhibitor, absorbance; 500 µM).
The inhibition of `O=C(/C=C/c1cccc(Cl)c1)NO` is reported as 69% (hdac10; 1 µM).
The inhibition of `COc1ccc(NC(=S)Nc2cccc3cccnc23)cc1` is reported as 52.6% (Beta-glucuronidase (uidA, Escherichia coli, UniProt P05804); enzyme activity, inhibitor, absorbance; 100 µM).
With `CC(C)Cn1cc(-c2ccnc(Nc3ccc(C(=O)Nc4ccccc4N)cc3)n2)nn1` the inhibition was 3.4% (CDK4 with cyclin D3; enzyme activity, inhibitor, TR-FRET; 5 µM).
The inhibition of `O=C(O)c1cc(S(=O)(=O)N2CCOCC2)ccc1Cl` is reported as 36% (Ectonucleoside triphosphate diphosphohydrolase 8; enzyme activity, inhibitor, absorbance; 100 µM).
`NC(=O)c1ccc(C(=O)NOCc2ccc(Sc3cccc(Cl)c3)c(C(F)(F)F)c2)cc1` gave an inhibition of 22.1% (HDAC7 (Homo sapiens, UniProt Q8WUI4); cell-free assay, inhibitor; 100 µM).
`O=C(c1cccc(S(=O)(=O)N2CCOCC2)c1)N1CCOCC1` gave an inhibition of 37% (Ectonucleoside triphosphate diphosphohydrolase 3 (Homo sapiens, UniProt O75355); enzyme activity, inhibitor, absorbance; 100 µM).
For `COCCNc1nc(C(=O)NCc2ccc(F)cc2)c(O)c2ncccc12`, the inhibition was 25 ± 6.5% (Tripartite terminase subunit 3 C-terminal nuclease domain; endonuclease activity, ELISA; 10 µM).
`C#CCSc1nc(Sc2nnnn2-c2ccccc2)c2nnn(Cc3ccccc3Cl)c2n1` gave an inhibition of < 15% (CDK4 with cyclin D3; enzyme activity, inhibitor; 10 µM).
For `Cc1cccc(/C=C/C(=O)c2cnn(-c3ccccc3)c2C)c1`, the inhibition was 18.1% (AMY2; enzyme activity, inhibitor, absorbance; 80 µM).
`C/C(=N\OCCN1CCOCC1)c1cccc(C(F)(F)F)c1` gave an inhibition of 66.6% (Sigmar1; radioligand binding; 1 µM).
`COC(=O)c1cn(Cc2ccc(F)cc2)cc(OC)c1=O` has an inhibition of 8% (Tripartite terminase subunit 3 C-terminal nuclease domain; endonuclease activity, inhibitor, ELISA; 20 µM).
`C[C@]12CCC[C@H]1[C@@H]1CCc3c(cc(Cl)c(O)c3Cl)[C@H]1CC2` gave an inhibition of 66.2% (AKR1C2; enzyme activity, inhibitor, absorbance; 10 µM, pH 9).
For `CN(CCON=Cc1ccc(C(F)(F)F)cc1)Cc1ccccc1`, the inhibition was 105% (Sigmar1; radioligand binding; 10 µM).
`O=C(/C=C/c1ccc2c(c1)sc1ccccc12)NO` gave an inhibition of 54% (hdac10; 1 µM).
`COc1ccc(-c2nc(CSc3nc(N)c(C#N)c(-c4ccc5c(c4)OCO5)c3C#N)cs2)cc1` gave an inhibition of 47% (ADORA3 (Homo sapiens, UniProt P0DMS8); ligand displacement, radioligand; 1 µM, cell membranes).
The inhibition of `CCc1nc2ccccc2n1S(=O)(=O)c1ccc2c(c1)C(=O)CC2=O` is reported as 68.8% (ELANE; enzyme activity, inhibitor, fluorescence; 50 µM).
The inhibition of `Oc1ccc([C@H]2Oc3cc(O)cc(O)c3C[C@H]2O)cc1` is reported as 44.9% (PNLIP; enzyme activity, inhibitor; 10 µM).
The inhibition of `COc1cc(/C=N\C(=S)NNC(=O)CC2C(=O)c3ccccc3C2=O)cc(OC)c1OC` is reported as 35% (ELANE; enzyme activity, inhibitor, fluorescence; 100 µM).
`CN(C)c1ccc(C(=O)NCc2ccc(C(=O)NO)cc2)cc1` has an inhibition of < 10% (hdac10; 0.1 µM).
`O=C(Nc1ccc(Cl)cc1)c1cccc(S(=O)(=O)N2CCOCC2)c1` gave an inhibition of 24% (Ectonucleoside triphosphate diphosphohydrolase 8; enzyme activity, inhibitor, absorbance; 100 µM).
With `CC(C)c1ccc(COc2ccc(CC(=O)NCCN)cc2Cl)cc1` the inhibition was 53.3% (PDK1; enzyme activity, inhibitor, ATP luminescence; 2 µM).
For `COc1cc(O)c(C(=O)/C=C/c2ccccc2)c(O)c1OC`, the inhibition was 37.2 ± 2.8% (α-glucosidase (Saccharomyces cerevisiae); inhibitor; 10 µg/mL, added: pNPG).
`Cc1cc(-c2nc(-c3cccc(S(N)(=O)=O)c3)no2)ccc1-c1ccncc1` gave an inhibition of ≥ 20% (Programmed cell death 1 ligand 1, with PD-1 (CD274, Homo sapiens, UniProt Q9NZQ7); PD-1/PD-L1 binding, inhibitor, TR-FRET; 25 µM).
The inhibition of `COc1ccc2c(c1)CC[C@@H]1[C@@H]2CC[C@@]2(C)CCC[C@@H]12` is reported as 75% (AKR1C2; enzyme activity, inhibitor, absorbance; 100 µM, pH 9).
The inhibition of `COc1ccc(Cn2ccc3ccc(C(=O)NO)cc32)cc1` is reported as 14% (hdac10; 0.1 µM).
For `O=C1CC(=O)c2cc(S(=O)(=O)n3cnc4ccccc43)ccc21`, the inhibition was 91.1% (ELANE; enzyme activity, inhibitor, fluorescence; 100 µM).
The inhibition of `C[C@@]12CC[C@@H]3c4cc(Br)c(O)c(Br)c4CC[C@H]3[C@@H]1CCC2=O` is reported as 86% (AKR1C2; enzyme activity, inhibitor, absorbance; 100 µM, pH 9).
`O=C(/C=C/c1ccc2c(c1)OCCO2)c1ccco1` has an inhibition of 32.5% (MAOB (Homo sapiens, UniProt P27338); enzyme activity, inhibitor, fluorescence; 1 µM).
With `O=C(/C=C/c1ccccc1Br)NO` the inhibition was 85% (hdac10; 1 µM).
`C[C@]12CC[C@@H]3c4cc(Cl)c(O)cc4CC[C@H]3[C@@H]1CCC2=O` has an inhibition of 53% (AKR1C2; enzyme activity, inhibitor, absorbance; 10 µM, pH 9).
For `O=c1c(-c2nc3ccccc3s2)cc2c(n1NS(=O)(=O)c1ccc(Cl)cc1)CCCCCC2`, the inhibition was 71.9% (USP7 (Homo sapiens, UniProt Q93009); enzyme activity, inhibitor, fluorescence; 100 µg/mL).
For `C/C(=N\OCCN(C)Cc1ccccc1)c1ccc(C(F)(F)F)cc1`, the inhibition was 102% (Sigmar1; radioligand binding; 10 µM).
`CC(=O)OC1CCC2(C)C(CCC3(C)C2CCC2C(C4=CC(C=C(C)C)OC4=O)CCC23C)C1(C)C` (stereo not drawn) has an inhibition of 51.5% (PTPN1 (Homo sapiens, UniProt P18031); enzyme activity, inhibitor, absorbance; 50 µM).
For `C[C@@]12CC[C@@H]3c4cc(Br)c(O)cc4CC[C@H]3[C@@H]1CCC2=O`, the inhibition was 81.4% (AKR1C2; enzyme activity, inhibitor, absorbance; 10 µM, pH 9).
`O=C(/C=C/c1cc(F)ccc1Br)NO` has an inhibition of 12% (hdac10; 0.1 µM).
`Cc1ccc(N2CCN(C(=O)c3noc(-c4ccc(F)cc4)n3)CC2)cc1` gave an inhibition of 3 ± 7% (SCN9A (Homo sapiens, UniProt Q15858); sodium current, whole-cell patch clamp; HEK293, stable; 20 µM).
`O=C(NO)C1=CCCC1` has an inhibition of 45% (hdac10; 0.1 µM).
`O=C(c1ccc(Oc2cccc3ccccc23)c([N+](=O)[O-])c1)C(Cl)Cl` has an inhibition of 26.5 to 30.1% (PDK1; enzyme activity, inhibitor, ATP luminescence; 10 µM).

A few entries again:
The inhibition of `CCc1nc2ccccn2c1C(=O)NCc1ccc2oc(-c3ccc(OC(F)(F)F)cc3)nc2c1` is reported as 50% (Cytochrome bc1-aa3 supercomplex (Mycolicibacterium smegmatis, UniProt A0R052+I7GD61); oxygen consumption, Clark electrode; 10 µM, added: NADH).
`C/C(=N\OCCN1CCCCC1)c1ccccc1C(F)(F)F` has an inhibition of 73.6% (Sigmar1; radioligand binding; 1 µM).
For `Cc1[nH]c2ccccc2c1CCNC(=O)c1cccs1`, inhibition read “inhibited” (ACTR3/Actin-related protein 2 (Homo sapiens, UniProt P61158+P61160); actin polymerization, pyrenyl-actin; 20 µM, added: 300 nM ActA).
`C/C(=N\OCCCCN1CCOCC1)c1ccc(C(F)(F)F)cc1` gave an inhibition of 57.8% (Sigmar1; radioligand binding; 1 µM).
`Nc1ncnc2c1ncn2[C@@H]1O[C@H](CNc2c(NC(=O)CCC(=O)c3ccccc3C(=O)O)c(=O)c2=O)[C@@H](O)[C@H]1O`: inhibition “inactive” (2-succinylbenzoate--CoA ligase (menE, Escherichia coli, UniProt P37353); enzyme activity, inhibitor, MenE–MenB coupled; concentration not given).
The inhibition of `CC(C)Cn1cc(-c2nc(Nc3ccc(OCCCCCCC(=O)NO)cc3)ncc2F)nn1` is reported as 5.13% (CDK4 with cyclin D3; enzyme activity, inhibitor, TR-FRET; 50 nM).
`N#Cc1cccc(Nc2ncnc3[nH]c4cc(Br)ccc4c23)c1` gave an inhibition of 44.2% (PTK6 (Homo sapiens, UniProt Q13882); enzyme activity, inhibitor, ADP detection; 2 µM).
